Experimental data collected from several papers.
Parts stem from different laboratories: compare values within a part only. Positions count from the first letter of the parent shown.

Series 1
Target: RNA binding protein fox-1 homolog 2, RRM domain, GST-SBP tag (RBFOX2, Homo sapiens, UniProt O43251-10, residues 100-194)
Technique: RNA Bind-n-Seq
Molecule type: RNA
Sample: in vitro
Concentration: 365 nM
Notes: natural RNA segment, single round, ends assumed
Relative to: no-protein control
Direction: higher = stronger binding
Residues (chain): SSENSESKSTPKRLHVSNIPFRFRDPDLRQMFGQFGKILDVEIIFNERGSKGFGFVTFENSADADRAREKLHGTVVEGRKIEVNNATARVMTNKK
Strand | RBNS enrichment (R)
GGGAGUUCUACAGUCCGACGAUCGAGGCCACACUGGGCGCGGUGCCAGAGGCCCCUGGUCAGGCCAUGCCCCUGCAGUGUCCUUCGUUCACUAGACAUUGCGCCUGGCUUGCUGUGGGUGGGGAUGAGUUGCUUGGAAUUCUCGGGUGCCAA | 1.61
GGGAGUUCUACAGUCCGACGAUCGAGUCAACAGGAACACCAUAGCACCCACAAAUACUUCUACUUGAAUCAUAUUCUGUGCUUUUUCAAUCACUAGUGCAGAAUAGGCUGCAUUUGACACAGACUGUUAGGCAUGGAAUUCUCGGGUGCCAA | 0.374
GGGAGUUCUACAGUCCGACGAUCCCAGCUCCCUGCACCCAGAGGGGGCCUUCUCACCUCUUCUCAGGAAGCAGCUACGACCCAUUGCCCUCCUACCUGCUUCGCUACUGGUCCAUGGUACAGACUGUUCCAGAUGGAAUUCUCGGGUGCCAA | 0.472
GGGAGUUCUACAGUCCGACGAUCCGAUUAGAAUAGUCAAGUGGAUUAUGUAUAUUUAGUUGGAUAUUGGACAUCUUGGCAACACAAUCUUACAAAGGCAGAUUCAGCUGCCCCCAUACCACUGUGUUCCUUCUUGGAAUUCUCGGGUGCCAA | 0.272
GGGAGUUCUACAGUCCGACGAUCGGUCACCUAUGAGCUGAAUCAGCCUCUCCUGAGUCCCAGGCCCCUGCAGUCCCCUGUUCUCUGGCCUGCAGUCUCUUGCCCGCUGGUUCCACUUUAUAGCCACCUUUUCCUGGAAUUCUCGGGUGCCAA | 0.351
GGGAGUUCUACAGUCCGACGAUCGAGUUUUCCGAGCCUCAGAAUCCAGGAGAUACGCACAGCCCCACCCACUCUGAGAUGACAGUGGCUGACUUCCCGUGCUGGGCUUUUCCAUUGUCCCCCUGGCCUCCAGGUGGAAUUCUCGGGUGCCAA | 0.372
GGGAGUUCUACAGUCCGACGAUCUACUUCCUGACUGUGCCAGGGCUUGGGUUCCCCACCACCUCCUCAAUGGAGCAAAGACUCCUGCUAGGCCCUGGUCUCCCUGGGGUUUAUCCCUCCUGGGUCAUGGGAAAUGGAAUUCUCGGGUGCCAA | 0.271
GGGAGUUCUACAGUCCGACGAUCGUUUCUCAGCUCCCAAGGCUCUGAGCAAAUGUGGCUCCUGGGGGUUCUUUCUUCCUCUGCUGAAGGAAUAAAUUGCUCCUUGACAUUGUAGAGCUUCUGGCACUUGGAGAUGGAAUUCUCGGGUGCCAA | 0.286

Series 2
Target: Fragile X messenger ribonucleoprotein 1, C-terminal low-complexity region (Fmr1, Mus musculus, UniProt P35922)
Technique: RNA Bind-n-Seq
Molecule type: RNA
Sample: in vitro
Concentration: 200 nM
Notes: whole 134-nt RNA, ends assumed
Together with: 150 mM LiCl
Relative to: input library
Direction: higher = stronger binding
All molecules: 7-deaza-guanosine replaces G
Strand | log2 enrichment
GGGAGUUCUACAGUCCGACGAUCUGGCCCUGGUGGCAUGCGGGGAGGAAGAGGUGGCCUCAUGGAUCGUGGUGGUCCCGUUGGAAUGUUCAGAGGUGGCCGUGGUGGAGACAGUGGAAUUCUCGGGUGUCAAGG | -0.017
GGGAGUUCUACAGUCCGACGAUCUGUCGGGGCCAAAGUGGUAACGAACGCCCGCAGCCCGGGGGCUCGAUGCUAUGGAUUCGUCACCAUGUCGACAUCUGACGAGGCGACCAAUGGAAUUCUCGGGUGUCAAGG | -2.92
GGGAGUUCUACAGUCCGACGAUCUGGGAGGUGGAUUUUGUUUAUUUUUUUAGCUCAUUUCCAGGGGUGGGAAUUUUUUUUUAAUAUGUGUCAUGAAUAAAGUUGUUUUUGAAGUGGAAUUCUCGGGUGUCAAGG | -0.0902
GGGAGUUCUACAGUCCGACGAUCCUGUGCUACACAUCGUAUGUACCGAAUCGGGGUUUUUGGGGAAAAAGGGGUUUUUUUGGGGAAAGUAUUAUGUUACGCCGUUCGGAUCUGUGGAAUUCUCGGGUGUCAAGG | -1.29
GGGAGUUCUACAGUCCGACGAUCAGUCCUGUGCUACACAUCGUAUGUACCGAAUCGGGAAAAAAAGGGUUUUUGGGAGGGAAAGUAUUAUGUUACGCCGUUCGGAUCUGCACUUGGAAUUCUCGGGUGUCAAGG | -1.87
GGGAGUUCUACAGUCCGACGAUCUUGCCACUCUAAAUUCAGAAGAGGAGAGCGACCCUCCAACCUACAAGGAUGCCUUCCCUCCACUUCCUGAGAAAGCUGCUUGCCUGGAAAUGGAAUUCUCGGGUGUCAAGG | 0.0344
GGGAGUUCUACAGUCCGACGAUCUCAAGUCCUGUGCUACACAUCGUAUGUACCGAAUCGGUUUGGGUUUGGGUUUGGAAAGUAUUAUGUUACGCCGUUCGGAUCUGCACUUCCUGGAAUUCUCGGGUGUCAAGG | -1.1
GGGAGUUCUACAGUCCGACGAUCAGUCCUGUGCUACACAUCGUAUGUACCGAAUCGGGUUUGGGAAAAAAAGGGUUUGGGAAAGUAUUAUGUUACGCCGUUCGGAUCUGCACUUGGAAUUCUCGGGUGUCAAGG | -3.06

Series 3
Target: PABPC1L2, full length, GST fusion (mouse, UniProt A0ABA7IW68)
Technique: RNAcompete
Molecule type: RNA
Sample: in vitro
Concentration: 20 nM
Notes: 7-mer, probes averaged, single round
Relative to: mean of 7-mers
Direction: higher = stronger binding
Construct (chain): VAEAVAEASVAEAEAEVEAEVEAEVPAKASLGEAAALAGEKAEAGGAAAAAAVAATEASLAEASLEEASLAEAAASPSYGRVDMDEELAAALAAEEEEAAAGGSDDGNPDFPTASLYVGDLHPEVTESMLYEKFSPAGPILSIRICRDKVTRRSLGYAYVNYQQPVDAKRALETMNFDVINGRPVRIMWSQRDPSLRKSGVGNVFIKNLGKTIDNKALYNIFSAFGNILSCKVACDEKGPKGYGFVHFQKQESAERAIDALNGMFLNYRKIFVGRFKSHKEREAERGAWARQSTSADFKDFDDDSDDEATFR
Strand | 7-mer Z-score
UUCUCUG | -0.277
GACGGGC | 0.157
CCAUCAU | -0.36
GCGUAAG | -0.391
CGACCUG | -0.331
GGCUGAC | 0.138
AAGACUA | 0.378
CGAAAUA | 0.408
GAACAGA | 0.222
CGACCGU | -0.168
GUAGAUU | -0.0409
CGAAUUU | -0.151
ACGCUGU | -0.289
UAAGAUC | -0.11
CCCUUAA | -0.257
AACCAUC | -0.161
ACGGUGG | 0.0388
GACACUC | -0.186

Series 4
Target: CCNB1, cyclin fold, Cln2 fusion (human)
Technique: yeast growth competition, sequencing
Sample: yeast
Notes: weak parent motif
Relative to: not given
Direction: higher = stronger binding
Starting sequence: ITGB3BP docking peptide (human); MPVKRSLKLDGLL
Substitution | normalised enrichment score
M1A | -0.135
L13A | 0.838
L12A | 0.555
L9A | 0.76
K8A | 0.78
S6A | 1.13
R5K | 0.172
